Published values collected from several papers.
Every numbered part comes from another study and shows a few of its results, in no order. Positions count from the first letter of the parent shown.

Study 1
Target: ABI1, truncated, D143A, DHFR fusion (Arabidopsis thaliana)
Technique: DHFR PCA, deep sequencing
Matrix: yeast
Setting: methotrexate growth selection, single substitutions
With: (+)-ABA 4.8 µM
Relative to: wild-type fitted maximum
Direction: higher = stronger binding
Starting sequence: PYL1, truncated, DHFR fusion (Arabidopsis thaliana); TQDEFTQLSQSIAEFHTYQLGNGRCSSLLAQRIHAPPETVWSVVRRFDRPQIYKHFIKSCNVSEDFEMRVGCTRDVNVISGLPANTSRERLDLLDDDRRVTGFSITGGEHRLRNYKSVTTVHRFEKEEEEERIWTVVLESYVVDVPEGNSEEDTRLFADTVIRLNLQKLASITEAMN
Variant | relative binding score [%]
V137F | 5.31
R113T | 72.4
Q7Y | 77.7
V145P | 7.99
D97N | 77.1
E152V | 50.3
Q7M | 76.7
D96I | -14.1
Y115I | 10
Q31P | 1.27
S63T | 69.9
V43G | 4.02
I172P | -0.893
F66S | 54.6
H55E | 65.7
L138C | 13.2
V121P | -14.1
E152K | 48.5
S11M | 63.8
N85K | 91.9

Study 2
Target: RNA binding protein fox-1 homolog 2, RRM domain, GST-SBP tag (RBFOX2, Homo sapiens, UniProt O43251-10, residues 100-194)
Technique: RNA Bind-n-Seq
Molecule type: RNA
Matrix: in vitro
Concentration: 365 nM
Setting: natural RNA segment, single round, ends assumed
Relative to: no-protein control
Direction: higher = stronger binding
All sequences stand within: GGGAGUUCUACAGUCCGACGAUC … UGGAAUUCUCGGGUGCCAA
Construct (chain): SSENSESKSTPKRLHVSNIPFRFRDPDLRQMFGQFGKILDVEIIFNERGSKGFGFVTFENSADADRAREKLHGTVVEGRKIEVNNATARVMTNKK
Strand | RBNS enrichment (R)
UGUGGGAAAGCAGGGUGGACGCUGAGGAGUGAAAGAACCCUGCACCCAGAGGGCCUGCCUGGUGCCAAGGUAUCCCAGCCUGGACAGGCAUGGACCUGUCUCCAGAGAGA | 0.333
AAUUCUUUAAAAUUCACUAAUGAUUGAGGUCCAUAUUUAGUGGUACUCUGAAAUUGGUCACUUUCCUAUUACACGGAGUGUGCUAAAACUAAAAAGCAUUUUGAAACAUA | 0.609
CCCCUGUUCCAUUCCCCUCUUCUUCCUUCUAUCUCCUUCCCCGGCAAAAACCAAACAAACUGGCAGACAGGCCAGGGAUGUAUGUUGCUUGCUUGAGAGGGUUUCUUUUA | 0.463
UGGGACCACAUCCUCCACUGUGGCUGACAACGCCCUUCCAAGGGAAUAUGGAAUGAGAACAUUCAUUAUUGAGGUUGUCCAAUGGCCAGGGUAUGCUUUCUAGAAAAUAU | 0.688
CUGUAAAAACAGUGCUCUCUGCUGCUAGGACCUUUUUUCUGCUUCCUGUCAUUUUCAUGUGGCUUGAGCUCUGAGACGUGCGGAUGAGGCUGGACAACUACUACCCAUAC | 0.649
GCCAUCCCCUGCCCACCAUUGCCGUGGAGGGGGCUGCCAGGCAUAGCUGCUGUGAGCCAUGUCCUUGUGUGUGUCUGUUCACUCUUAGGAGCCACGCCCAAGGCGAGACU | 0.328
CGCCCCCGCCCUCGCUCCGGGUGCGUGACCGGCCCGCCACCUUGUACAGAACCAGCACUCCCAGGGCCCGAGCGCGUGCCUUCCCCGUGCGGCCCGUGCGCAGCCGCGCU | 0.55
UGGCCCUCAGAUCCUUAGUAUUGUGUGAUUUUCCCCCGUUAACAUGUCUUUCUAAAAUUGUCUAUUAAAGCAGAGGAAAUACCUGCCAAAGGAAGUAUGUAUUGCAUUAA | 0.711
CUUUCUGUGUUGUGUUCUGCCCUGUGCUCUUCUCUCUACGUUAACGUUUCCUGUAGUAUGUUUCUUCAUCUCAUCGCCAAGGUAGGCUUGUGUUUUUCAGUGUGUGCCUC | 0.634
UCUGACCUCAUGCUGCACACACUGUGGAAUUUCUUCAAGGAAGCUGUAGGUCGGUGCAGGAUCCCCAGAAGUGCAGGUCUCUCCAGUCUGCAGUUUGCCAACUUGUCUGC | 1
AAUUAAUAACGAGCCUAGUUUAGGAAAAAGCUGCUUAAAACUGUGGCUCUAAGAGAGUAAUCAUAAAAUACCUUAGAUAAAAUUGCACUAUGGAAUUUUCAUUGAGUAUG | 0.713
GUGGAUGAUUAACGGGCCUUUUUCACUUAGAAGCUGCACAUUAUGGAGCAUUAAACACUUUUGUCAUGAUGCUGGUGGCCUUCUGCUUGCUUGUAUCCCUGGCCUGGGUC | 0.795

Study 3
Target: Interferon regulatory factor 7, full length, phosphomimetic (IRF7, Homo sapiens, UniProt Q92985, residues 1-503, S101K/S471D/S472D/S475D/S476D/S477D/S483D/S484D/S487D)
Technique: protein-binding microarray
Molecule type: double-stranded DNA, one strand shown
Matrix: in vitro
Concentration: 250 nM
Setting: 60-bp whole probe
With: salmon DNA 0.4 mg/ml
Relative to: random background probes
Direction: higher = stronger binding
All sequences stand within: GCCTAGCAC … GTCTTGATTCGCTTGACGCTGCTG
Residues (chain): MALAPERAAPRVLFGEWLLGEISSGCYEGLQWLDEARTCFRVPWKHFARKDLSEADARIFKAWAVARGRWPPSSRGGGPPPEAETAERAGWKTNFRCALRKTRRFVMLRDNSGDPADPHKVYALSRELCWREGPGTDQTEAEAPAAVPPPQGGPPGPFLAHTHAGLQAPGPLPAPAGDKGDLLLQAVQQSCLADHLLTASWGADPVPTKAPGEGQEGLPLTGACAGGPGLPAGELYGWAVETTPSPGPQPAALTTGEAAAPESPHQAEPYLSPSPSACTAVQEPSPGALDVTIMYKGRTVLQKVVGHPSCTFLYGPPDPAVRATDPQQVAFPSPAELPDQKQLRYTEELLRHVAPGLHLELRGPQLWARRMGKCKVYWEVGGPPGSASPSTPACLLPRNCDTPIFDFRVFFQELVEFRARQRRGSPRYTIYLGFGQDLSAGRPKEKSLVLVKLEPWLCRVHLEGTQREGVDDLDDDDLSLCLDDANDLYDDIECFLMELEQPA
Strand | log fluorescence [z-score]
TTAGGACTGGGTATCGTTTAGTGCTAG | 0.799
TTAGGTATCGGGTTGCGGTTAGTGCTA | 2.96
GACGGTCTCCTTTACCTGACGTGCTAG | 0.355
GACGGTCTCATTATCCTGACGTGCTAG | 0.645
GTATGGATGTGTTTTAAATAGTGCTAG | -0.251
TCATCTTTCTAATTCAAACTGTGCTAG | 1.35
TTTGGTATCGACACTGGGTTAGTGCTA | 0.0776
TTAGGACTGGACTATCGGATAGTGCTA | 0.0125
GAAGGTTTCGGGTATCGGGACGTGCTA | 7.28
CCAGATTTCCCCACCATCTAGTGCTAG | 1.54
CACGATTTCGGGACTGGAGACGTGCTA | 0.344
TCATATTTGCTTCAGGTACTGTGCTAG | 0.801
TTAGATCTCAGACTGTATTAGTGCTAG | -0.0666
TTAGGTTACGACTTTCGGTTAGTGCTA | 2.01
GACGATATCAGTATCGAGACGTGCTAG | 0.102
GGAAGCTTCTTTTTTATTCTGTGCTAG | 0.0518
GACGATCTCAATCTCGAGACGTGCTAG | 0.0248
TCAATTTTGCTTTCATTACTGTGCTAG | 0.922
GACGAACTGGGGTAACGAGACGTGCTA | -0.498
TTAAATATCGGGTATCGATTAGTGCTA | 0.865
TTAAATATCAGTTTCGATTAGTGCTAG | 9.61

Study 4
Target: Histone acetyltransferase KAT6A, both winged helices, GST fusion (KAT6A, Homo sapiens, UniProt Q92794, residues 1-181)
Technique: protein binding microarray
Molecule type: double-stranded DNA, one strand shown
Matrix: in vitro
Concentration: not given
Setting: 8-mer, flanks averaged, mean of 2 arrays, mostly near background
Relative to: not given
Direction: higher = stronger binding
Residues (chain): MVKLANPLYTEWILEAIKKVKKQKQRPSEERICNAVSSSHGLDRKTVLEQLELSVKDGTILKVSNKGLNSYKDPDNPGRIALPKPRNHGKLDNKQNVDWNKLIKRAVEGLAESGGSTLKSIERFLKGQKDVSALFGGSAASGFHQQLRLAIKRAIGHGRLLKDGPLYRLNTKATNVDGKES
Strand | E-score
CACCGGCC | 0.227
CACAGTAA | -0.0709
GGTTAAAA | 0.0284
CATGCGTA | 0.142
CAACGTTG | 0.0917
ATAGGATC | -0.134
AGGGCGTG | 0.0797
AGAATTCC | -0.0566
AACGGCTT | 0.205
CCGTACCA | 0.161
ATAACGGC | 0.276
ATCAAAGC | -0.018
ATGGCTAG | -0.153
AGTCTTTA | -0.255
AGTATTCC | -0.0244
ACAGGCCC | -0.0817
CCCTCAGC | -0.0632
CCACCGAG | -0.137
AAATACGA | -0.117
TGGTAGAA | -0.0997

Study 5
Target: CCNA2, cyclin fold, Cln2 fusion (human)
Technique: yeast growth competition, sequencing
Matrix: yeast
Setting: strong parent motif
Relative to: not given
Direction: higher = stronger binding
Starting sequence: INSM1 docking peptide (human); PKAIRKLHFEDEV; partner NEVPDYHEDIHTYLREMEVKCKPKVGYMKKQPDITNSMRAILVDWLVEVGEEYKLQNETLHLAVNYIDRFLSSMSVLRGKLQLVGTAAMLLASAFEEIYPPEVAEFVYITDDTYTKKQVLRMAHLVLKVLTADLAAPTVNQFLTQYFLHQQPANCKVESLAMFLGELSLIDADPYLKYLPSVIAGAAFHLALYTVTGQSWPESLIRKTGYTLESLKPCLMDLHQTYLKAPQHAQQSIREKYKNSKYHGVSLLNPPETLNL
Variant | normalised enrichment score
PKAIRKLHFEDQV [E12Q] | 4.98
PKAIRKLHFEKEV [D11K] | 4.65
PKAMRKLHFEDEV [I4M] | 6.2
PKHIRKLHFEDEV [A3H] | 4.18
PKACRKLHFEDEV [I4C] | 6.18
PKKIRKLHFEDEV [A3K] | 1.35
PKAIRKEHFEDEV [L7E] | 0.0298
PKAIRKLHFCDEV [E10C] | 4.84
PKCIRKLHFEDEV [A3C] | 5.72
PKDIRKLHFEDEV [A3D] | 0.134
PKAIRKLSFEDEV [H8S] | 4.9
PKAIRKLHYEDEV [F9Y] | 3.48
PKARRKLHFEDEV [I4R] | 6.73
PKAIRPLHFEDEV [K6P] | 0.613
PKAIRCLHFEDEV [K6C] | 4.73
PKAIRKLHFNDEV [E10N] | 4.75
PKANRKLHFEDEV [I4N] | 5.17
PKAIRKLHEEDEV [F9E] | -0.297
PKAIRKLHFKDEV [E10K] | 4.24
PKAIRKLVFEDEV [H8V] | 5.87
PKAIRKLCFEDEV [H8C] | 6.08
PKAIRKLHFVDEV [E10V] | 4.33
PKAIRWLHFEDEV [K6W] | 1.07
PKAIRKLHFEFEV [D11F] | 4.65
PKAIRKLHFEDDV [E12D] | 5.5

A few entries again (study 5):
Variant | normalised enrichment score
PKAIRCLHFEDEV [K6C] | 4.73
PKAIRKLHFNDEV [E10N] | 4.75
PKANRKLHFEDEV [I4N] | 5.17
PKAIRKLHEEDEV [F9E] | -0.297
PKAIRKLHFKDEV [E10K] | 4.24
PKAIRKLVFEDEV [H8V] | 5.87
PKAIRKLCFEDEV [H8C] | 6.08
PKAIRKLHFVDEV [E10V] | 4.33
PKAIRWLHFEDEV [K6W] | 1.07
